{"data": "Results from different studies", "note": "Each line is one published result; not all experiments were run side by side. ± gives the spread as reported."}
{"SMILES": "Oc1ccc2ccc3ccccc3c2c1", "test system": "zebrafish embryo", "EC50": "500 to 5500 nM"}
{"SMILES": "O=[N+]([O-])c1ccc2c3c(cccc13)-c1ccccc1-2", "test": "developmental toxicity", "test system": "zebrafish (Danio rerio) embryos", "setting": "6 to 120 hpf", "EC50": "2040 nM"}
{"SMILES": "CN[C@@H](C)C/C=C/c1cncc(OC)c1", "test": "dopamine release, releaser, refers to: [3H]dopamine", "test system": "rat striatal synaptosomes", "EC50": "6300 nM"}
{"SMILES": "Oc1cc2c(O)cccc2c2ccccc12", "test system": "zebrafish embryo", "EC50": "500 to 5500 nM"}
{"SMILES": "CC(C)C[C@H](NC(=O)[C@H](Cc1ccccc1)NC(=O)[C@@H](NC(=O)[C@H](Cc1c[nH]cn1)NC(=O)[C@H](CC(=O)O)NC(=O)[C@@H](NC(=O)[C@H](CC(=O)O)NC(=O)[C@@H](N)[C@@H](C)O)C(C)C)C(C)C)C(=O)N[C@@H](CCCNC(=N)N)C(=O)N[C@@H](Cc1ccccc1)C(N)=O", "test": "heart contraction rate decrease", "test system": "Drosophila melanogaster white prepupae, pupal heart", "EC50": "30 nM"}
{"SMILES": "O=C(O)c1ccc(O)c(O)c1", "test": "hydroxyl radical scavenging, in vitro", "setting": "50% scavenging", "EC50": "1900 ± 210 nM"}
{"SMILES": "c1ccc2c(-c3cnn4cc(-c5ccc(N6CCNCC6)cc5)cnc34)ccnc2c1", "test": "intersomitic vessel formation", "test system": "zebrafish Tg(fli1:EGFP)y1 embryos", "setting": "12 to 48 hpf, about 50% of vessels inhibited", "EC50": "20000 nM"}
{"SMILES": "Oc1cccc2c1ccc1ccccc12", "test system": "zebrafish embryo", "EC50": "500 to 5500 nM"}
{"SMILES": "O=[N+]([O-])c1ccc2ccc3cccc4ccc1c2c34", "test": "developmental toxicity", "test system": "zebrafish (Danio rerio) embryos", "setting": "6 to 120 hpf", "EC50": "44800 nM"}
{"SMILES": "CN1CCC[C@H]1c1cccnc1", "test": "[3H]dopamine release", "test system": "rat striatal synaptosomes", "EC50": "3000 nM"}
{"note": "A few entries again:"}
{"SMILES": "O=C(O)c1ccc(O)c(O)c1", "test": "hydroxyl radical scavenging, in vitro", "setting": "50% scavenging", "EC50": "1900 ± 210 nM"}
{"SMILES": "c1ccc2c(-c3cnn4cc(-c5ccc(N6CCNCC6)cc5)cnc34)ccnc2c1", "test": "intersomitic vessel formation", "test system": "zebrafish Tg(fli1:EGFP)y1 embryos", "setting": "12 to 48 hpf, about 50% of vessels inhibited", "EC50": "20000 nM"}
